Measurements of several laboratories.
Each numbered part is a random draw from the data of one study; scales do not carry over between parts. Changes are numbered by the printed parent chain.

Series 1
Target: CEP164, C-terminal peptide (human)
Method: DHFR complementation, deep sequencing
Matrix: yeast
Notes: single substitutions, model-inferred values
Baseline: wild type
Direction: higher = weaker binding
Starting sequence: PDZK1, PDZ domain 2 (human); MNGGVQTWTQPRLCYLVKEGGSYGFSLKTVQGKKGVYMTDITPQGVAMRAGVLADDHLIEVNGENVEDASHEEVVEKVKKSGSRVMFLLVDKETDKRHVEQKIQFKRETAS; partner HNRVKVYRF
For `K33Q`, “binding free energy change” read -0.0294 kcal/mol.
`V46C`: “binding free energy change” 0.296 kcal/mol.
`Y23S` — result for “binding free energy change”: 1.48 kcal/mol.
`A69G` — result for “binding free energy change”: 0.221 kcal/mol.
For `D56S`, “binding free energy change” read 0.0435 kcal/mol.
Under “binding free energy change”, `G24Y` is recorded as 0.45 kcal/mol.
Under “binding free energy change”, `F105R` is recorded as -0.251 kcal/mol.
`S83L`: “binding free energy change” -0.0461 kcal/mol.
For `G20A`, “binding free energy change” read 0.186 kcal/mol.
Under “binding free energy change”, `R107Q` is recorded as -0.115 kcal/mol.
`L89H` — result for “binding free energy change”: 0.99 kcal/mol.
`L89P`: “binding free energy change” 1.23 kcal/mol.
`L13W` — result for “binding free energy change”: 0.177 kcal/mol.
Under “binding free energy change”, `M86Y` is recorded as -0.0738 kcal/mol.
For `V90W`, “binding free energy change” read -0.0981 kcal/mol.
For `K79D`, “binding free energy change” read 1.8 kcal/mol.
For `V74Q`, “binding free energy change” read 0.0345 kcal/mol.
`V85E`: “binding free energy change” 1.64 kcal/mol.
`W8P`: “binding free energy change” -0.0975 kcal/mol.
`E100N`: “binding free energy change” -0.112 kcal/mol.
For `S22V`, “binding free energy change” read -0.0703 kcal/mol.
`G51D`: “binding free energy change” 1.34 kcal/mol.
`V5A` — result for “binding free energy change”: -0.109 kcal/mol.

Series 2
Target: RNA binding protein fox-1 homolog 2, RRM domain, GST-SBP tag (RBFOX2, Homo sapiens, UniProt O43251-10, residues 100-194)
Method: RNA Bind-n-Seq
Form: RNA
Matrix: in vitro
Concentration: 365 nM
Notes: natural RNA segment, single round, ends assumed
Baseline: no-protein control
Direction: higher = stronger binding
Target sequence (chain): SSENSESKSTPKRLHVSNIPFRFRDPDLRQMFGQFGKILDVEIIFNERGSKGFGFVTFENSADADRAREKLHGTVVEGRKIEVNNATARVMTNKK
For `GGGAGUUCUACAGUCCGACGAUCCCUCUGUCUUGUCAGUGGAGGUGCCUGGGUGGGGAGCAGGUCUCAGGCCUCUUGUCCUCUCCCCAGUGGCUCCAGGCCUCACUAGUGGCAAGGGCAGGAUGAGGCUGCACUGGAAUUCUCGGGUGCCAA`, “RBNS enrichment (R)” read 0.41.
For `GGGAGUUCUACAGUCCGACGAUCCGGCUUGUGAUCUGAAAAGUUCUCUAGGGUACCCUGGUUUUUGAAAUAUGCCUUCCUGCUGAGCUGAAGUCUUUCAUUCCACUUCACUGGGGGAGCAGCUGAGGCUUGGGUGGAAUUCUCGGGUGCCAA`, “RBNS enrichment (R)” read 0.518.
`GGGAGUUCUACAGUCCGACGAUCGAAUAUGGUGAGAAAUUGGGAAAAAUGGACAUUGAUAGGCAUAUCAUCUGCUUUGUGUACAUAUGGUAUUAAAACUGAAAACAAAUAUUCUUGACAUUUGGGUUUCAAAAUGGAAUUCUCGGGUGCCAA`: “RBNS enrichment (R)” 0.665.
`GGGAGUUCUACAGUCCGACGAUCUCUGUCCUUCCCCCCAGGAAACACAUGUUCAUUUGUGUGAUCAUGUAUAGACCUCAGAACGGAAGAUAGGACUGUAUAUAAUUGUAAUAAAUACCAGUUGCCACUAUUUAUGGAAUUCUCGGGUGCCAA` — result for “RBNS enrichment (R)”: 0.375.
`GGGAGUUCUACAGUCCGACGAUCACAUUUUAUUACAAAAUGUAGAAAUGCUAGCCCAUCUCCCCCUGCCCUAUACAUUUGCUCUUCCUAUAUAAGUUGGUGAACUUUCCUAUAUAACAACAUAGAAUAACAACUGGAAUUCUCGGGUGCCAA` — result for “RBNS enrichment (R)”: 0.506.
For `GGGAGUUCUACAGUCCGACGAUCGUGGAGAGGCCGUGGGAUUAAGCACAAUAGGAGGCGCAGCUCCUGCUUCUACCGUUAGGCGCUGCAGGCUUGAAGUGGCAAGGCCCUGCAUCUCAAGCACUCAGAGCUCUUGGAAUUCUCGGGUGCCAA`, “RBNS enrichment (R)” read 0.632.
`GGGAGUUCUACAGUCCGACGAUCAAAACGUUUCCCCAGGCCCUGCUGUCUGCCAGGAGUGCCAAGUGUCAACUGUUUACACACAAACUGCCAUGUCCCACGCCCCUUCCCUCUCCUUGUUUGCUAUGGGGGAGUGGAAUUCUCGGGUGCCAA` — result for “RBNS enrichment (R)”: 1.24.
For `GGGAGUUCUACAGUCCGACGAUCCCUUUUCCUUCACCAUCUAUGGGAUAUUAGGGGCAGAAUCUGCCACUUCUUGCCCAGGAGUGUGCACAGAUGUAAGAUAAUUUUGUGAAAUAAUGUACCAUAGACUCUCAUGGAAUUCUCGGGUGCCAA`, “RBNS enrichment (R)” read 0.328.
Under “RBNS enrichment (R)”, `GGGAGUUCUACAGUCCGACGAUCGACUGCAUUGUUUUCUAGCCCCGAGGUGGUGGCACGGGCCCUCCCUCCCAGCGCUCUGGGAGCCACGCCUAUGCCCUGCCCUUCCUCAGGGCCCCUGGGGAUCUUGCCCCUGGAAUUCUCGGGUGCCAA` is recorded as 0.273.
Under “RBNS enrichment (R)”, `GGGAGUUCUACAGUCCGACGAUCCAAAAAGUGGUGCUGAGGGACUCCUAAGUCGGCCGUAGCACCUCGAGCCCUGGGCUUUGAAGGCAGCCUUAGGACAAACUCCUCUGCCUAAGGCAUCAUGCCUCAGCCCCUGGAAUUCUCGGGUGCCAA` is recorded as 0.57.
Under “RBNS enrichment (R)”, `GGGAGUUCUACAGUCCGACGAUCGAAGACCUUUCUAGGGGGCCUGGUUCUGGACCCGCUACCACUGGCCUCAAGACUCUUUUGCCUCAGUCAAGACUGUUAUAUGUAGCUGUUGUCUUUCCUGUCCCAACCUAUGGAAUUCUCGGGUGCCAA` is recorded as 0.308.
Under “RBNS enrichment (R)”, `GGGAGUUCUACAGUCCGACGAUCUUUGUUUAUUAACCUUUCCGUGUUUAAUGAAAACAAACAGGGAUAAAUAAAGUCUUGAGUUCCUGGAUAACACUGAAGAACGUGAUCAGAGAUAACAUAGUGUGACUUGUUGGAAUUCUCGGGUGCCAA` is recorded as 0.584.

Series 3
Target: Interferon regulatory factor 7, full length, phosphomimetic (IRF7, Homo sapiens, UniProt Q92985, residues 1-503, S471D/S472D/S475D/S476D/S477D/S483D/S484D/S487D)
Chain of UniProt Q92985 (whole entry, unmodified, looked up): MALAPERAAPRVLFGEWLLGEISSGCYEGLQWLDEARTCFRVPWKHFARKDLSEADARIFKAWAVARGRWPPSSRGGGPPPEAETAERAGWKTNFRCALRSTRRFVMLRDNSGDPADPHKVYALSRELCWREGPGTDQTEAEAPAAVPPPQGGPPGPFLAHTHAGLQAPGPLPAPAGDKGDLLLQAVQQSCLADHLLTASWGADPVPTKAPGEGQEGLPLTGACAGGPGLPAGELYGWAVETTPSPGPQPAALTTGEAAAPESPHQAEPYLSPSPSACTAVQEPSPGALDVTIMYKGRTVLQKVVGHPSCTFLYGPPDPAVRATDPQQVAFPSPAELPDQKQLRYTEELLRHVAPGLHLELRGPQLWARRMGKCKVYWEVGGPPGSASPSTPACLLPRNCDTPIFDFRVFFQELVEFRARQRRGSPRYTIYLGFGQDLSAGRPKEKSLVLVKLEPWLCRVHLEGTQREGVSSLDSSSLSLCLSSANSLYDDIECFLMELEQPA
Method: protein-binding microarray
Form: double-stranded DNA, one strand shown
Matrix: in vitro
Concentration: 2200 nM top
Notes: 60-bp whole probe
Together with: salmon DNA 0.4 mg/ml
Baseline: random background probes
Direction: higher = stronger binding
Constant ends, left off below: GCCTAGCAC … GTCTTGATTCGCTTGACGCTGCTG
Under “fitted relative affinity”, `GACGACATCAGACTGGAGACGTGCTAG` is recorded as -0.0822 z-score.
Under “fitted relative affinity”, `TTAGAACTGGGGTTTCGATTGGTGCTA` is recorded as 3.79 z-score.
For `GGGATTTTGTCCTCCCCTCCCGTGCTA`, “fitted relative affinity” read -0.0677 z-score.
`GACGGTAACGGTATCGGGACGTGCTAG` — result for “fitted relative affinity”: -0.364 z-score.
`GACGGTCTCCTTTTCCAGACGTGCTAG` — result for “fitted relative affinity”: 1.64 z-score.
`TTAGGTCTCCTACTGCATTAGTGCTAG` — result for “fitted relative affinity”: 0.557 z-score.
Under “fitted relative affinity”, `TTAGGACTGGGGTTCGGTTAGTGCTAG` is recorded as -0.231 z-score.
For `TCACTTTCCATTTCTGTTACTGTGCTA`, “fitted relative affinity” read 10.7 z-score.
`TCAGTTACCCCTCATCAAACTGTGCTA`: “fitted relative affinity” 1.54 z-score.
For `TCAGCTCTGTGCATAGGACTGTGCTAG`, “fitted relative affinity” read 0.227 z-score.
`GACGATCTTAGTCTCGAGACGTGCTAG` — result for “fitted relative affinity”: 0.246 z-score.
For `GACGGTTTCGGGACTGCGGACGTGCTA`, “fitted relative affinity” read 3.83 z-score.
Under “fitted relative affinity”, `AGTGGTATAGCACTAAGGGAGTGCTAG` is recorded as -0.596 z-score.
`GACGGACTGGACACTGGTGACGTGCTA`: “fitted relative affinity” -0.562 z-score.
`GACGGACTGGGCTTTCGGGACGTGCTA` — result for “fitted relative affinity”: 0.46 z-score.
For `CAAGTTTCTCCTTTCGGAATGTGCTAG`, “fitted relative affinity” read 6.06 z-score.
Under “fitted relative affinity”, `GACGGTATCCATATCCTGACGTGCTAG` is recorded as 0.946 z-score.
Under “fitted relative affinity”, `TGGGCTACCTCTCTTAGAATGTGCTAG` is recorded as -0.482 z-score.
Under “fitted relative affinity”, `TGCTTTCTTTAACTCATTTTGTGCTAG` is recorded as 1.82 z-score.

Series 4
Target: Fragile X messenger ribonucleoprotein 1, C-terminal low-complexity region (Fmr1, Mus musculus, UniProt P35922)
Method: RNA Bind-n-Seq
Form: RNA
Matrix: in vitro
Concentration: 200 nM
Notes: whole 134-nt RNA, ends assumed
Together with: 150 mM KCl
Baseline: input library
Direction: higher = stronger binding
For `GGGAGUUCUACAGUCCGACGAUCGUCCUGUGCUACACAUCGUAUGUACCGAAUCGGGGUGGGGUUUUUUUGGGGAAAGGGGAAAGUAUUAUGUUACGCCGUUCGGAUCUGCACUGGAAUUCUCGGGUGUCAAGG`, the log2 enrichment was 0.619.
`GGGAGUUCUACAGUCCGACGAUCUGCUAGGACUUGAUGGAUCACUAGUUUUUCUGGUAAGUAAAACUAAUUUUUUUUUUUUUUUUUUGAGACGGAAUCUCACUCUGUCACCCAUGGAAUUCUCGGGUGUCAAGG` has a log2 enrichment of 0.594.
`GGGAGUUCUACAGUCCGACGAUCGCAGGAAGUAAAAACAAAUGGAAAUGCUUCGGAUAGUGGCAGGGGUGGGGGUUGCUAAGGAAAGGGUGGGUUGGGAGUGGGUAAAGAGUUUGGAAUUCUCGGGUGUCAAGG` gave a log2 enrichment of 0.338.
`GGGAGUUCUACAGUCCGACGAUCCCUCAAGUCCUGUGCUACACAUCGUAUGUACCGAAUCGGGGAGGGAGGAGGGAAAGUAUUAUGUUACGCCGUUCGGAUCUGCACUUCCAGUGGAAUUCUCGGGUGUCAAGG` has a log2 enrichment of 1.3.
`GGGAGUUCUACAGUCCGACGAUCACCAUGCAGGUGGGCAUCUUUGGGAAAUGGGGCAAGGGGGGGAUAGGGAGGGGGGUAACACUUUGGGAACAGGUGGUCCCAGGUCGUUUCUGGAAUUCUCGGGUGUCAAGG` has a log2 enrichment of 0.981.
The log2 enrichment of `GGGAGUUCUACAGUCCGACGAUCGCAUGAAGUAAAAACAAAUGGAAAUGCUUCGGAUAGUGGCAGGGGUGGGGGUUGCUAAGGAAAGGGUGGGAUGGGAGUGGGUAAAGAGUUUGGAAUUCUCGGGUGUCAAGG` is reported as 0.254.
The log2 enrichment of `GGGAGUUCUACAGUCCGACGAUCUCCUGUGCUACACAUCGUAUGUACCGAAUCGGGAAAAAAGGGGAAAAAAGGAAAAAAGGAAAGUAUUAUGUUACGCCGUUCGGAUCUGCAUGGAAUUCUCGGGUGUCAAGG` is reported as -0.317.
`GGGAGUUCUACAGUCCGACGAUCCACAGACAACACGCACCCACACAGACACAGAGGGAAGGGCUUGGGAUGGGGACAGGGUGCACAGCAGGGCGGGGUAGGACCCCAGCCCCUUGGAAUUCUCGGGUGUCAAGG` has a log2 enrichment of 1.35.
`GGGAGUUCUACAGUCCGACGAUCCACAGACAACCCGCACCCACACAGACACAGAGGGAAGGGGUUGGGAUGGGGACAGGGUGCACAGCAGGGCGGGGUAGGACCCCAGCCCCUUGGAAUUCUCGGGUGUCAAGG` gave a log2 enrichment of 1.45.
The log2 enrichment of `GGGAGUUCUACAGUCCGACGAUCGCAGGAAGUAAAAACAAAUGGAAAUGCUUCGGAUAGUGGCAGGGGUGGGGGUUGCUAAGGAAAGGGUGGGAAAAGAGUGGGUAAAGAGUUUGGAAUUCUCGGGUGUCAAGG` is reported as 0.321.

A few entries again (series 1):
For `K79D`, “binding free energy change” read 1.8 kcal/mol.
`L89H` — result for “binding free energy change”: 0.99 kcal/mol.
For `S22V`, “binding free energy change” read -0.0703 kcal/mol.
For `G20A`, “binding free energy change” read 0.186 kcal/mol.
For `D56S`, “binding free energy change” read 0.0435 kcal/mol.
Under “binding free energy change”, `F105R` is recorded as -0.251 kcal/mol.
`S83L`: “binding free energy change” -0.0461 kcal/mol.
For `K33Q`, “binding free energy change” read -0.0294 kcal/mol.
`L13W` — result for “binding free energy change”: 0.177 kcal/mol.
`Y23S` — result for “binding free energy change”: 1.48 kcal/mol.
